Measured values from different studies.
A part holds a random share of what one study measured. Changes are numbered by the printed parent chain.

Study 1
Target: Probable WRKY transcription factor 11, DNA-binding domain (WRKY11, Arabidopsis thaliana, UniProt Q9SV15, residues 228-325)
Method: DNA-protein interaction ELISA
Molecule type: double-stranded DNA, one strand shown
Medium: in vitro, bacterial lysate
Tested at: not given
Notes: whole dsDNA probe, crude lysate protein
Reference: highest signal in screen
Direction: higher = stronger binding
Target sequence (chain): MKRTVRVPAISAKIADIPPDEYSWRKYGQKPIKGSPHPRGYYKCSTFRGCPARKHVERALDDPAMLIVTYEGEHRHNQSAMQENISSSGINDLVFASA
Strand | relative absorbance
AAAAAACTACTACCTTTGCCTAAGCGAAAA | 17.9 % of maximum
AAAAAAACGATACGGTATCTAGAAAA | 14.1 % of maximum
AAAAAATGGAAGGAGAGGGATGAAATAAAA | 13.3 % of maximum
AAAAAACTACGTATATTCAGGCCCTAAAAA | 17.3 % of maximum
AAAAAATTAGGACCATCCCCACTAGGAAAA | 18.4 % of maximum
AAAAAACTCTTAAGGAAAGTTCCGACAAAA | 16.1 % of maximum
AAAAAAGTCTCACCTTTAGTCTTAATAAAA | 19 % of maximum
AAAAAATCTTACCCCTCCGCTTCTATAAAA | 15.6 % of maximum

Study 2
Target: Ras GTPase-activating protein-binding protein 1, C-terminal RGG region (G3BP1, Homo sapiens, UniProt Q13283)
UniProt Q13283, sequence (whole entry, looked up): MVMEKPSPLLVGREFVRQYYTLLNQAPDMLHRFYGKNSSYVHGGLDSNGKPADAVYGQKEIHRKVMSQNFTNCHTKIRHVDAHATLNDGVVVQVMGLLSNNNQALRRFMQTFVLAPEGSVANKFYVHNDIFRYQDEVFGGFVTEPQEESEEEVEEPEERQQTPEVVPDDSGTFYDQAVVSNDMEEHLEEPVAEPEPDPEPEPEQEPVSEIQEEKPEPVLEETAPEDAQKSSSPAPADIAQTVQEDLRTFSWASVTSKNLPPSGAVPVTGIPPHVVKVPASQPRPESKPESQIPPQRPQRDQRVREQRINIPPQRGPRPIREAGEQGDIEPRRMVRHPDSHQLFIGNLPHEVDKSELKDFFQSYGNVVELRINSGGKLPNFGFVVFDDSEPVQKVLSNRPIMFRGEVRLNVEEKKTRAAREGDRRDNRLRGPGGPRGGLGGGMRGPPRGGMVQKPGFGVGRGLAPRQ
Method: RNA Bind-n-Seq
Molecule type: RNA
Medium: in vitro
Tested at: 1 µM
Notes: whole 134-nt RNA, ends assumed
With: 150 mM KCl
Reference: input library
Direction: higher = stronger binding
Shared flanks, not repeated: GGGAGUUCUACAGUCCGACGAUC … UGGAAUUCUCGGGUGUCAAGG
Strand | log2 enrichment
UUCGAAGAGGUUGUGUACCAGGCCAUGGGUGAGUGCCCGGGCCACCGAGGCCACGUGCCUCCACGAGGGGCUGCCUAUGCCCCACCCUGG | -0.953
CACAGACAACACGCACCCACACAGACACACAGGGAAGGGGUUGGGAUGGGGACAGGGUGCACAGCAGGGCGGGGUAGGACCCCAGCCCCU | 0.0276
AGUCCUGUGCUACACAUCGUAUGUACCGAAUCGGGUUUUGGGGUUUUGGGGUUUUGGAAAGUAUUAUGUUACGCCGUUCGGAUCUGCACU | -0.61
CUCAAGUCCUGUGCUACACAUCGUAUGUACCGAAUCGGGCCGGGGCCGGGCCGGAAAGUAUUAUGUUACGCCGUUCGGAUCUGCACUUCC | -1.63
UGGCCCUGGUGGCAUGCGGGGAGGAAGAGGUGGCCUCAUGGAUCGUGGUGGUCCCGGUGGAAUGUUCAGAGGUGGCCGUGGUGUAGACAG | 3.45
CAAGUCCUGUGCUACACAUCGUAUGUACCGAAUCGGGGUGGGGUUUGGGGAGGGGAAAGUAUUAUGUUACGCCGUUCGGAUCUGCACUUC | 3.51
ACCAUGCAGGUGGGCAUCUUUGGGAAGUGGGGCAAGGGGGGGAUAGGGAGGGGGGUAACACUUUGGGAACAGGUGGUCCAAGGUCGUUUC | 2.12
ACCAUGCAGGUGGGCAUCUUUGGGAAGUGGGGCAAGGGGGGGAUAGGGAGGGGGGUAACACUUUGGGAACGGGUGGUCCCAGGUCGUUUC | 2.54

Mixed results
P1: viral docking peptide; KGVKRKLFAEDSS; partner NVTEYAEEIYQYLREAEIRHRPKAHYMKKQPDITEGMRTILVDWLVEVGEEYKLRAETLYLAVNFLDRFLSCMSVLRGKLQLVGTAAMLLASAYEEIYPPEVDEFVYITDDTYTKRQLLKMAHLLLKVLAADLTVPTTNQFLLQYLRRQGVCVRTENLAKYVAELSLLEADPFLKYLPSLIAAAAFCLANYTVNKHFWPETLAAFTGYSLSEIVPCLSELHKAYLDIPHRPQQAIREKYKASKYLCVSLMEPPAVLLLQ
Substance | tested on | assay | system | setting | how to read | endpoint | result
H1-4 (Homo sapiens, UniProt P10412) | H1-5 (Homo sapiens, UniProt P16401) | cross-linking MS |  | hits only |  | interaction screen | cross-linked
P1 G2T | CCNA1, cyclin fold, Cln2 fusion (human) | yeast growth competition, sequencing | yeast | weak parent motif | reference: not given, higher = stronger binding | normalised enrichment score | 1.16
